Measured values of several laboratories.
A part holds a random share of what one study measured.
Sequence of UniProt P10721 (whole entry, unmodified, looked up): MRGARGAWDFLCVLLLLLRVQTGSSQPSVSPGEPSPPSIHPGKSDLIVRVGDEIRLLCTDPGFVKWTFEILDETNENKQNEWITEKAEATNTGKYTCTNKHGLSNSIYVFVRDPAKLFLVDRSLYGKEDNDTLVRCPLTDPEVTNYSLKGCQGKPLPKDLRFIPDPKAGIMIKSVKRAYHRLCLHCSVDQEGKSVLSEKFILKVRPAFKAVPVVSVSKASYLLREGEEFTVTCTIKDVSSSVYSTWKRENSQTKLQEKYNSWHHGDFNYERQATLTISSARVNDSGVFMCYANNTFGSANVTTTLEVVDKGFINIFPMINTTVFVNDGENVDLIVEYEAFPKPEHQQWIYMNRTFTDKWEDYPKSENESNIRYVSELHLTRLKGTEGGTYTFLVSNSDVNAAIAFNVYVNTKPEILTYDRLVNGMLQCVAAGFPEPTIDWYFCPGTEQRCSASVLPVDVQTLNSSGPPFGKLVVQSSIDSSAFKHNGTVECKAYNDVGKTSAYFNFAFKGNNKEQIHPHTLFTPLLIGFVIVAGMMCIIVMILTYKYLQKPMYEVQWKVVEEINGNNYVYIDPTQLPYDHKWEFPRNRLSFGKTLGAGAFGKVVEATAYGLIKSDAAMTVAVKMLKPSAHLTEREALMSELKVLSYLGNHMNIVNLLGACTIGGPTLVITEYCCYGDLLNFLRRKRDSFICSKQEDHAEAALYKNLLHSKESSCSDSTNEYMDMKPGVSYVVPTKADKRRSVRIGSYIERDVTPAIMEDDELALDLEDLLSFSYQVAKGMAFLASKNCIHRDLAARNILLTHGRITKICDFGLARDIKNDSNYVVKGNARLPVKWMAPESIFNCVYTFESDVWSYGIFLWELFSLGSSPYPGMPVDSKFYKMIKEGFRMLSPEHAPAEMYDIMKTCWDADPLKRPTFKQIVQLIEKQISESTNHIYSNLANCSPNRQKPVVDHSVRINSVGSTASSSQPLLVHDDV
Sequence of UniProt Q00537 (whole entry, looked up): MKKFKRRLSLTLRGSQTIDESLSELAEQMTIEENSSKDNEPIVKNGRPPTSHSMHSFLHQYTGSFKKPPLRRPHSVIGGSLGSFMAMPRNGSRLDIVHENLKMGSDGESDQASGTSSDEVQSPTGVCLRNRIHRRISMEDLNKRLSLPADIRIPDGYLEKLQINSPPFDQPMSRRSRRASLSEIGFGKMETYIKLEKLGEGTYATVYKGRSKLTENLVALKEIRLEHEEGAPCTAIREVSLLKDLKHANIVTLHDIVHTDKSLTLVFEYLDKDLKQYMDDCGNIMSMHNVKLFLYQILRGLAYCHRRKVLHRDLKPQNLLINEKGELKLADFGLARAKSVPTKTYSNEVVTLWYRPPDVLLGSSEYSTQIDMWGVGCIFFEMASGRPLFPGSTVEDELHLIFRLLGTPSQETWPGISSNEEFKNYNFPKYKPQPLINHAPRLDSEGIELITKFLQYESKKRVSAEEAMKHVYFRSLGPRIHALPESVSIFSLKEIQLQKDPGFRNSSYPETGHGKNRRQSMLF
Sequence of UniProt Q9P2K8 (whole entry, unmodified, looked up): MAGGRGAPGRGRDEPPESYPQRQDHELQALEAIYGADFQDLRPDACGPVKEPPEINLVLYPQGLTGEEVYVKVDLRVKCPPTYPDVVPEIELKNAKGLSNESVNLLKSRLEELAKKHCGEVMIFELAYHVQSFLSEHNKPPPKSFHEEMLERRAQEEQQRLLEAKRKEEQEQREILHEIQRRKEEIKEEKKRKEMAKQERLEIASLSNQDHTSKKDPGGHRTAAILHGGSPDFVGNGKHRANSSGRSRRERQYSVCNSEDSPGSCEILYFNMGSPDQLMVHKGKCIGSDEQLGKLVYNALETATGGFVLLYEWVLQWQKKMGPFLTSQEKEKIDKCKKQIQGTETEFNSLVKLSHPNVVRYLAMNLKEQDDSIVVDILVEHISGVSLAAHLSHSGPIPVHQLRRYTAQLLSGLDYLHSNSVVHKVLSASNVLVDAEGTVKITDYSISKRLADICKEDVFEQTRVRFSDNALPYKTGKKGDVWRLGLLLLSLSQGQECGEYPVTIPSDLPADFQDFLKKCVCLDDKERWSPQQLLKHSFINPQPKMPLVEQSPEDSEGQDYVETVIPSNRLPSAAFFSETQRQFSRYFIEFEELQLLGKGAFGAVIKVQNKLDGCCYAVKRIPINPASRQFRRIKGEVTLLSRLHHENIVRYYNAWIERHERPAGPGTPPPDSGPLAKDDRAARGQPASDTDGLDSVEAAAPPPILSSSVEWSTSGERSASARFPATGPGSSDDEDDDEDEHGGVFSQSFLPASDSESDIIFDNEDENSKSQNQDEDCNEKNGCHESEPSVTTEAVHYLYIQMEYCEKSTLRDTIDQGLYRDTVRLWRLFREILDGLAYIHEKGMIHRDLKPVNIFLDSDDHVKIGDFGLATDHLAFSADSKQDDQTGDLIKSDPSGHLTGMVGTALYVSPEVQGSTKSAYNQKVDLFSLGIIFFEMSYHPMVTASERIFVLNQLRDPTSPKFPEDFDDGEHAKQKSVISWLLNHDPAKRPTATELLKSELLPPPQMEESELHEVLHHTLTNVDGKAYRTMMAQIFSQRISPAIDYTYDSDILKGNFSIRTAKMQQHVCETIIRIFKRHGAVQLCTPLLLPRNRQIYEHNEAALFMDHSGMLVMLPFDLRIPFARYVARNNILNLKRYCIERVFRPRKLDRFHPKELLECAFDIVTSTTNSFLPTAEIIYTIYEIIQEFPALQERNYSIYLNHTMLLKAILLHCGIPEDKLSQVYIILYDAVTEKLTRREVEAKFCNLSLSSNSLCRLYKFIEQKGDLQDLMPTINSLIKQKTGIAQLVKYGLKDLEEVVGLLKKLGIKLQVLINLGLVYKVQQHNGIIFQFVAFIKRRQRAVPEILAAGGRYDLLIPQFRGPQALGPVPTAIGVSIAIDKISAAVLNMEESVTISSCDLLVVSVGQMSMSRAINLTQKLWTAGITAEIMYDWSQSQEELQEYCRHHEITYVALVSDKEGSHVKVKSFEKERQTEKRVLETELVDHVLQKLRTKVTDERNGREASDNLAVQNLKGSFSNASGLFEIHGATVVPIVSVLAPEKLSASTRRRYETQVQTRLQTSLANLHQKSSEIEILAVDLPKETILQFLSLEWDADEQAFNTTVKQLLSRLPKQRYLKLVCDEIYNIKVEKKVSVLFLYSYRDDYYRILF
Sequence of UniProt P19784 (whole entry, looked up): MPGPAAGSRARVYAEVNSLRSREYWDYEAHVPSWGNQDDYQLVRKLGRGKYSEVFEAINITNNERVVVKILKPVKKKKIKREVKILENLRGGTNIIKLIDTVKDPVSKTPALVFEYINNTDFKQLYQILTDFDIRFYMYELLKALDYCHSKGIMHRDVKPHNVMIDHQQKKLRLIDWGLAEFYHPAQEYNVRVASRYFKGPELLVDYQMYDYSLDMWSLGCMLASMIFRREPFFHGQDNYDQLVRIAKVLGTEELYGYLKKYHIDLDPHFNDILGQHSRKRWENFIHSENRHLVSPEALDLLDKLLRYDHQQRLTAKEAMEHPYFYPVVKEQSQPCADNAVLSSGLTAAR
Sequence of UniProt Q15759 (whole entry, looked up): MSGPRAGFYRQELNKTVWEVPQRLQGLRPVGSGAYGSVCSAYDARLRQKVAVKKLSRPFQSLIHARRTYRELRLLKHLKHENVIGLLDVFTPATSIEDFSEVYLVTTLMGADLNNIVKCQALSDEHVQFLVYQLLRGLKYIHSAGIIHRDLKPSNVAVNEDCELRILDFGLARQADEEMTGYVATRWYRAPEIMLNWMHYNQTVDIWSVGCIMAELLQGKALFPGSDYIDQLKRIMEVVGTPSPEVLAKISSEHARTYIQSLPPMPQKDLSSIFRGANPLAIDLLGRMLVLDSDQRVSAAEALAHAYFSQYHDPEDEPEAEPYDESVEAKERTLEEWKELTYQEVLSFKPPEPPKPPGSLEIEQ
Sequence of UniProt Q15418 (whole entry, looked up): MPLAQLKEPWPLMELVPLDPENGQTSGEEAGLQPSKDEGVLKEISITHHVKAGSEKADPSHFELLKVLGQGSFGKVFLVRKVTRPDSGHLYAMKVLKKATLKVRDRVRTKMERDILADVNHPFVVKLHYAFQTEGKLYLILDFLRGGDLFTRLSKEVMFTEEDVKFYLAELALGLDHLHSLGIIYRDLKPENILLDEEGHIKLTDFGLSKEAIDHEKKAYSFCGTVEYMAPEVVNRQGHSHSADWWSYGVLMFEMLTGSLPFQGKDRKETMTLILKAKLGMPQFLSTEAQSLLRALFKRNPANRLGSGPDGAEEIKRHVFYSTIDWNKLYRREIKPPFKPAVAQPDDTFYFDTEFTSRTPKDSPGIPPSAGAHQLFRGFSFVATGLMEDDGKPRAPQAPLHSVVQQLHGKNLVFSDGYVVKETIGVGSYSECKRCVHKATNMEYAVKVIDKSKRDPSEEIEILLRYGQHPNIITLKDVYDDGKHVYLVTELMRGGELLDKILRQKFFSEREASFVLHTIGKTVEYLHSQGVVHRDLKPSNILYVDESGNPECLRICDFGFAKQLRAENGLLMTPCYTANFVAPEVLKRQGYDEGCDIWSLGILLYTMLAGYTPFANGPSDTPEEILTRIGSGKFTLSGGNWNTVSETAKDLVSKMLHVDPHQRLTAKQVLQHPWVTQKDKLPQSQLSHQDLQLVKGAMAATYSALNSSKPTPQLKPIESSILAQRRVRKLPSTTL

Sample 1
SMILES: CCCCN(CCCC)C(=O)CN1C[C@@H](c2cc(OC)c3c(c2)OCO3)[C@H](C(=O)O)[C@H]1CC(C)(C)CCC
Observed: cell-free assay
Method: competition with immobilised ligand
Tested at: 1 µM
It gave 77.1% for remaining binding (CSNK2A2 (Homo sapiens, UniProt P19784)).
For Ribosomal protein S6 kinase alpha-1, C-terminal kinase domain (RPS6KA1, Homo sapiens, UniProt Q15418): remaining binding read 75.7%.
CDK17 (Homo sapiens, UniProt Q00537) — remaining binding: 93.3%.
The remaining binding was 92.5% (SLK (Homo sapiens, UniProt Q9H2G2)).
The remaining binding was 99.2% (MAPK11 (Homo sapiens, UniProt Q15759)).
For FLT3 (Homo sapiens, UniProt P36888): remaining binding read 91.9%.
For KIT (Homo sapiens, UniProt P10721, V559D): remaining binding read 100%.
For MAP3K20 (Homo sapiens, UniProt Q9NYL2): remaining binding read 91.3%.

Sample 2
Compound: C[C@H]1CC[C@H](n2c3cnccc3c3cnc(Nc4ccc5c(n4)CCN(C(=O)CO)C5)nc32)CC1
Observed: cell-free assay
Tested at: 1 µM
ZAP70 (Homo sapiens, UniProt P43403) — remaining signal: 100%.
FES (Homo sapiens, UniProt P07332) — remaining signal: 100%.
For KIT (Homo sapiens, UniProt P10721, L576P): remaining signal read 1.2%.
It gave 58% for remaining signal (PIK3CA (Homo sapiens, UniProt P42336, C420R)).
DAPK1 (Homo sapiens, UniProt P53355) — remaining signal: 91%.
For EIF2AK4 (Homo sapiens, UniProt Q9P2K8, S808G): remaining signal read 100%.

Sample 3
Cell line: HaCaT
Tested at: 100 µM
Time: 60 h
With `NC(=O)N[C@@H](CCC(=O)O)C(=O)O` the viability was 125%.
`Nc1ccc(O)c(C(=O)O)c1` gave a viability of 131%.
For `Oc1cc(O)c(Cl)cn1`, the viability was 141%.
The viability of `Cn1nnc2c(C(N)=O)ncn2c1=O` is reported as 142%.
With `CCCCCCCCCC[C@H](C(=O)O)[C@]1(C(=O)O)CCC(=O)O1` the viability was 135%.
`Cc1ccsc1C(=CCCN1CCC[C@@H](C(=O)O)C1)c1sccc1C` gave a viability of 79.4%.
With `CCC(=O)c1c(O)cc(O)cc1O` the viability was 118%.

Sample 4
Target: MAP kinase-interacting serine/threonine-protein kinase 1 (MKNK1, Homo sapiens, UniProt Q9BUB5)
Sequence of UniProt Q9BUB5 (whole entry, looked up): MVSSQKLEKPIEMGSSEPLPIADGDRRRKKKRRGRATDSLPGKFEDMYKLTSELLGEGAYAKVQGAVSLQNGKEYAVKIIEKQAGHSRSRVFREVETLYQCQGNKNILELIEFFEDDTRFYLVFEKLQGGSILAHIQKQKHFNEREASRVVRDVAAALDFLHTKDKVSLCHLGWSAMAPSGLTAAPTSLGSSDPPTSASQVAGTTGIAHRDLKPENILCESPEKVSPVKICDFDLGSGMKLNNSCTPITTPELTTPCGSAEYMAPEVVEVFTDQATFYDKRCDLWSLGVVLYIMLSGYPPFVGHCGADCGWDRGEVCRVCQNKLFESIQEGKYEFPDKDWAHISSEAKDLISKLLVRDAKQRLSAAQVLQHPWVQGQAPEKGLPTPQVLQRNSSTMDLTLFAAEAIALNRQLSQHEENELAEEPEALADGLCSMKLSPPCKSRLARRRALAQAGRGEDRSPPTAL
Observed: enzyme activity
Mode: inhibitor
Tested at: 0.5 µM
Baseline: control
With `Cc1nc(-c2ccccc2)c(-c2ccncc2)o1` the remaining activity was 123%.
With `Nc1[nH]nc2nc3ccccc3nc12` the remaining activity was 97.4%.
`CN(C)c1ccc(C=C2C(=O)Nc3ccccc32)cc1` gave a remaining activity of 97.3%.
The remaining activity of `COc1ccc(CNC(=O)Nc2ncc([N+](=O)[O-])s2)cc1` is reported as 98.4%.
For `COc1cc2ncnc(Nc3ccc(F)c(Cl)c3)c2cc1OCCCN1CCOCC1`, the remaining activity was 41.9%.
`O=C1NC(=O)C(c2cn(CCCn3ccnc3)c3ccccc23)=C1Nc1ccccc1` gave a remaining activity of 99.3%.
`O=C(O)c1ccc2c3c1cccc3c(=O)n1c3ccccc3nc21` gave a remaining activity of 60.3%.
The remaining activity of `O=C(Nc1cccc(Nc2cc(Nc3cccc(C(F)(F)F)c3)ncn2)c1)C1CC1` is reported as 96.7%.
`N#CC(C#N)=C(N)/C(C#N)=C/c1ccc(O)cc1` gave a remaining activity of 77.2%.
For `NCCNc1ncc(C(N)=O)c(Nc2cccc(C(F)(F)F)c2)n1`, the remaining activity was 98.2%.
`COc1ccc(OC)c2c(=S)c3ccccc3[nH]c12` has a remaining activity of 115%.
With `Cc1ccc(Nc2nccc(N(C)c3ccc4c(C)n(C)nc4c3)n2)cc1S(N)(=O)=O` the remaining activity was 102%.
For `Oc1ccc(-c2nc(-c3ccncc3)c(-c3ccc(F)cc3)[nH]2)cc1`, the remaining activity was 102%.
For `O=c1c2ccccc2[nH]c(=S)n1CCN1CCC(=C(c2ccc(F)cc2)c2ccc(F)cc2)CC1`, the remaining activity was 101%.
`Cn1c2ccccc2c2c3c(c4c5ccccc5n(CCC#N)c4c21)CNC3=O` has a remaining activity of 75.2%.

Some of these lines once more (sample 4):
`CN(C)c1ccc(C=C2C(=O)Nc3ccccc32)cc1` gave a remaining activity of 97.3%.
The remaining activity of `COc1ccc(CNC(=O)Nc2ncc([N+](=O)[O-])s2)cc1` is reported as 98.4%.
